Measured values pooled from the literature.
Parts stem from different laboratories: compare values within a part only. Changes are numbered by the printed parent chain.

Study 1
Target: CCND2, cyclin fold, Cln2 fusion (human)
Method: yeast growth competition, sequencing
Medium: yeast
Notes: weak parent motif
Baseline: not given
Reading: higher = stronger binding
Starting sequence: SLBP docking peptide (human); ARYKRKLLINDFG
| Variant | normalised enrichment score |
| --- | --- |
| ARYKRKLLINMFG [D11M] | 0.355 |
| ARYKRILLINDFG [K6I] | 0.0179 |
| RRYKRKLLINDFG [A1R] | -0.405 |
| ARYKRKLLINPFG [D11P] | 0.692 |
| AHYKRKLLINDFG [R2H] | -0.0954 |

Study 2
Target: PABPC1L2, full length, GST fusion (mouse, UniProt A0ABA7IW68)
Method: RNAcompete
Molecule type: RNA
Medium: in vitro
Tested at: 20 nM
Notes: 7-mer, probes averaged, single round
Baseline: mean of 7-mers
Reading: higher = stronger binding
Target sequence (chain): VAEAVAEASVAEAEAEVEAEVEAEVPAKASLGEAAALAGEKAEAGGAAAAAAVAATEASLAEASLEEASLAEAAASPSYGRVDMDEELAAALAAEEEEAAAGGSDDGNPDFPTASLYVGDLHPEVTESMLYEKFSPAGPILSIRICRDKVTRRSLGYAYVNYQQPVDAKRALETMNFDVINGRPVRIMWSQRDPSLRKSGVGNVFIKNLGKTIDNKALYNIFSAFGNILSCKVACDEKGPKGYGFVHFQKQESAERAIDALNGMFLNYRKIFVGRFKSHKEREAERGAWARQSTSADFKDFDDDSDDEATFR
| Oligonucleotide | 7-mer Z-score |
| --- | --- |
| AUUUCUG | -0.371 |
| UGACUGC | -0.286 |
| GAACGUU | -0.271 |
| ACCUAUG | -0.117 |
| UUAGUGA | -0.219 |
| AAAAGGG | 3.9 |
| GCGCAGC | -0.0863 |
| CAUAACC | -0.282 |

Study 3
Target: RNA binding protein fox-1 homolog 2, RRM domain, GST-SBP tag (RBFOX2, Homo sapiens, UniProt O43251-10, residues 100-194)
Method: RNA Bind-n-Seq
Molecule type: RNA
Medium: in vitro
Tested at: 365 nM
Notes: natural RNA segment, single round, ends assumed
Baseline: no-protein control
Reading: higher = stronger binding
Shared flanks, not repeated: GGGAGUUCUACAGUCCGACGAUC … UGGAAUUCUCGGGUGCCAA
Residues (chain): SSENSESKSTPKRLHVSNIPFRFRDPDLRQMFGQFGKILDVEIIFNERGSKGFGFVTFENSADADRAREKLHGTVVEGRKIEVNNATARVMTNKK
| Oligonucleotide | RBNS enrichment (R) |
| --- | --- |
| GGCCCCCCAGGUCCACGUCCUUUAAAUUGGCCCUUUGGCUCUUGCCCUUGGCUCCCUUGGGCAGACAGCAGGCUUAGGCCAUUGAUAUCGCAGUUCUUCCUAUCAGCUUC | 0.241 |
| UCAUCAGGCCUUGGAGCAGUCACUGCUUUAUUCCGCAAAAAUUAUUUGGUAGGAAAUUUUUGGGAGAUCUGAUUUUCUUAUCCAAGUUUUGUAAAUAGUUGUUAUUUCUA | 0.615 |
| UUGUAUACAUAUAUCCUAAUACAAGAGUAGGAUAAGGUGGAAAUGUAAUGGCCUGAGGGAUGGUGAAGCAUUCUUUUAGUAUUUUUCAUCAUGUUGGGCUCCUAGAUUGU | 0.543 |
| AUUACUCCACUUUUUUUUAAGUGUCCUUCCAAUAACUAAUGCCACUCAUCAGCAUUGUCCUCUUUGGAAAUUUUGUCCUCCUGAGGAAAUGCACUUGACGAGUGCUGAAA | 0.359 |
| CCACAGCUAAUUUACCCCUGGAGAUGGGCUCAGGACAGCUGCCUACCCUAGUCUCACCAAUCGUGGAUCUAACUUUGCUCCUGAGACUGGACAGACUGCAGGACAAUUCC | 0.304 |
| UGAGGAUGGAAAGAGCCGUAAUGACGUUGGCCUUGCCGUGUUCCUUCUCCUCAGCGCCACACUCACAUAUUUCUCUGCUUUGGUUCUACAAUCUGUUGUUGAGUUCCCCC | 0.459 |

Single results of other studies
| Substance | target | assay | test system | conditions | scale | quantity | value |
| --- | --- | --- | --- | --- | --- | --- | --- |
| PhoQ, residues 284 288 289 292 302 303 SCEHLI | PhoP, residues 12 14 15 18 19 IFFTR (Escherichia coli, UniProt P23836) | Sort-seq, item: YFP reporter | E. coli | PhoQ-PhoP variant library, with: 10 µM Mg2+ | baseline: high Mg2+ state, higher = stronger signaling | fold induction | 7.9 |

Repeated from above (study 1):
| Variant | normalised enrichment score |
| --- | --- |
| ARYKRILLINDFG [K6I] | 0.0179 |
| ARYKRKLLINMFG [D11M] | 0.355 |
